Measured values of several laboratories.
Protocols differ between the studies behind these lines. Several values in a cell are separate wells, animals, samples, runs or records. ± gives the spread as reported.
ABCC2: ATP-binding cassette sub-family C member 2 (ABCC2, Homo sapiens, UniProt Q92887)
UniProt Q92887, sequence (whole entry, looked up): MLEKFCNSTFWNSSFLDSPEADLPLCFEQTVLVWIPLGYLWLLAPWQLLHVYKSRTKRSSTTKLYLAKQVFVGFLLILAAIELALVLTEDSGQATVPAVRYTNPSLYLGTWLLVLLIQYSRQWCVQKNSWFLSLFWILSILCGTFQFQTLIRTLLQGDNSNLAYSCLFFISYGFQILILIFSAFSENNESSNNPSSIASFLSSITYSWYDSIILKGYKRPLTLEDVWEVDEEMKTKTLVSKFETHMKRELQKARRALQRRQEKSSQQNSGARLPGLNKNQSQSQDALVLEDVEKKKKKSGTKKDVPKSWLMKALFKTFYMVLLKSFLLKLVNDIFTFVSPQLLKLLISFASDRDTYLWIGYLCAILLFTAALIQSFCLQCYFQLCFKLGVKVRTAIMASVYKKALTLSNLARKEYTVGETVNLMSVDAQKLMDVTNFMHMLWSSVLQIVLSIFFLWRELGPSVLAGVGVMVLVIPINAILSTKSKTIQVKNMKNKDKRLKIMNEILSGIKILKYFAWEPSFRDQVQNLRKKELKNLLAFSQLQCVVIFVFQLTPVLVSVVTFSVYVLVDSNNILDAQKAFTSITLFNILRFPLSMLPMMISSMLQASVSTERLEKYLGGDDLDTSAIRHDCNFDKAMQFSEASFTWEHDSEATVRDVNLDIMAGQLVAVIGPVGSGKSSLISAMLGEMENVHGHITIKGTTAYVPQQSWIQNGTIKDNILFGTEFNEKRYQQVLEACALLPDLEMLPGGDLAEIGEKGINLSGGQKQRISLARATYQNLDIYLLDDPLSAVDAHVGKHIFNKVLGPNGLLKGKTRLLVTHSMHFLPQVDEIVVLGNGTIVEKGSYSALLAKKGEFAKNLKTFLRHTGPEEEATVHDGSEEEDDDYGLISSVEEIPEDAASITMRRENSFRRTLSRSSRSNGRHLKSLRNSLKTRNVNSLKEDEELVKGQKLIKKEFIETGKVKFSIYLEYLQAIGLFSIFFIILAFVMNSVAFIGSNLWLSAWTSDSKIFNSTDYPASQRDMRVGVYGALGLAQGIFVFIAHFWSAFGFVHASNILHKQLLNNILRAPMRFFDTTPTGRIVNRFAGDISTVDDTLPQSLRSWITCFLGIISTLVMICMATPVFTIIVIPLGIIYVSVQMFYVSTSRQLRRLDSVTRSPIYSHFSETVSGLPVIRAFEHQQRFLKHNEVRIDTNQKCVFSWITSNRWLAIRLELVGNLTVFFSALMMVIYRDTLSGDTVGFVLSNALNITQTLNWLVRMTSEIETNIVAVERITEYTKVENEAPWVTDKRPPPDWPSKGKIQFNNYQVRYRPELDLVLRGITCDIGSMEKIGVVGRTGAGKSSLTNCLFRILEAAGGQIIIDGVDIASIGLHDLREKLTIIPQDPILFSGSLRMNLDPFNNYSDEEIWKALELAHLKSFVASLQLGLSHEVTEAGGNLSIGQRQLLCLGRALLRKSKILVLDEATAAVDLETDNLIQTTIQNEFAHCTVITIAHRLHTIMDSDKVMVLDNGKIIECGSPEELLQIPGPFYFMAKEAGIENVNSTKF
CYP3A4: Cytochrome P450 3A4 (CYP3A4, Homo sapiens, UniProt P08684)
UniProt P08684, sequence (whole entry, looked up): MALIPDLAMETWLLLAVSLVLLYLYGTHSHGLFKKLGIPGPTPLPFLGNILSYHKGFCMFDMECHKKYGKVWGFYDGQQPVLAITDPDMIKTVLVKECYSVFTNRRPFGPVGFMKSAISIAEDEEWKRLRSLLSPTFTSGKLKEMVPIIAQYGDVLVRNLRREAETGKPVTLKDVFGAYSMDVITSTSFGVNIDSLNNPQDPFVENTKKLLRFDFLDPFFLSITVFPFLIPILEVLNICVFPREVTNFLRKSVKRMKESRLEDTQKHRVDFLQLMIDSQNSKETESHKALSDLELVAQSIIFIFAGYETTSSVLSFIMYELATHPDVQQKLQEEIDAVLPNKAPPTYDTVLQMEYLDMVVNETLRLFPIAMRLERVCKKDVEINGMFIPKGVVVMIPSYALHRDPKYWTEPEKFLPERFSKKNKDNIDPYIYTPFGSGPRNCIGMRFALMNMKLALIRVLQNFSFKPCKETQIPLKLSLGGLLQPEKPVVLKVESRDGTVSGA
Tumor necrosis factor receptor superfamily member 9/Nectin-4: Tumor necrosis factor receptor superfamily member 9/Nectin-4 (Homo sapiens, UniProt Q07011+Q96NY8)
UniProt Q96NY8, sequence (whole entry, looked up): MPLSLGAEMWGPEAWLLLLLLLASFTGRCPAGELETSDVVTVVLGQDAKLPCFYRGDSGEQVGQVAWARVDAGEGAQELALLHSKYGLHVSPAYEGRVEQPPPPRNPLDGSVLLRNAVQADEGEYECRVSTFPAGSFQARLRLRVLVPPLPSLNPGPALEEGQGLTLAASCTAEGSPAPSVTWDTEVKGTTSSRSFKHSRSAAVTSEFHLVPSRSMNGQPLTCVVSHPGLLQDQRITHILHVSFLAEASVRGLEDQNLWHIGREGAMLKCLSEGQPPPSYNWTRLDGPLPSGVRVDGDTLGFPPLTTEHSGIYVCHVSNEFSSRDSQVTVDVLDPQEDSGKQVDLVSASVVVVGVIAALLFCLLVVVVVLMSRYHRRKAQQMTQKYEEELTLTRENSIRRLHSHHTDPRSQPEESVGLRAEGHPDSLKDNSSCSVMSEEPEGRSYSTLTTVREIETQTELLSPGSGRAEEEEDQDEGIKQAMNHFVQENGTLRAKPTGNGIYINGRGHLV
UniProt Q07011, sequence (whole entry, looked up): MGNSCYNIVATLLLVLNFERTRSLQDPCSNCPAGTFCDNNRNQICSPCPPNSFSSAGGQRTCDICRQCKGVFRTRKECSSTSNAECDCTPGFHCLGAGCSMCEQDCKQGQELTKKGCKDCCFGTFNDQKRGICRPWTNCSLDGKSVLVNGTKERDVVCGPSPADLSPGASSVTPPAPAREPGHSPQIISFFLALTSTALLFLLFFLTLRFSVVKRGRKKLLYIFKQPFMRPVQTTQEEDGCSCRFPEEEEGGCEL
UniProt Q16853, sequence (whole entry, looked up): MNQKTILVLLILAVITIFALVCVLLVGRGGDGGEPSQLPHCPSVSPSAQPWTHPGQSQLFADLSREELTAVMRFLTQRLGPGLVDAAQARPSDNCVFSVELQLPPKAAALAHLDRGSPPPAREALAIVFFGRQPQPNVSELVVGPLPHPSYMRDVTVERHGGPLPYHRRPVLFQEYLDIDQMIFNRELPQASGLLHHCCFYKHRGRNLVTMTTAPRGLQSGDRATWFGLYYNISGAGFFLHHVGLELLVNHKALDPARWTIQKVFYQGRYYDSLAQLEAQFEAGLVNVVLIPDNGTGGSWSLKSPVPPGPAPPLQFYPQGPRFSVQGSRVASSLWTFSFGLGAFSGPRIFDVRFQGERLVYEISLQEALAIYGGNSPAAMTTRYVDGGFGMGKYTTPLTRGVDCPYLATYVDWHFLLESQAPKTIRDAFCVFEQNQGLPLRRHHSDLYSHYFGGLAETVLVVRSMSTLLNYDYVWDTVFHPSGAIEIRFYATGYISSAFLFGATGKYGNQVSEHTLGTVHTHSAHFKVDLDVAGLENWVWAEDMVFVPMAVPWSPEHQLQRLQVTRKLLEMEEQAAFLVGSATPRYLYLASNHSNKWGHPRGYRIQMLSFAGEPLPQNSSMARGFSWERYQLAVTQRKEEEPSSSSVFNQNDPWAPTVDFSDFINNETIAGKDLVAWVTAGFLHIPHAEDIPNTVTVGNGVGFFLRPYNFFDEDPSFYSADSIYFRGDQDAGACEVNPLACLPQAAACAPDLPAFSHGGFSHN
UniProt Q12809, sequence (whole entry, looked up): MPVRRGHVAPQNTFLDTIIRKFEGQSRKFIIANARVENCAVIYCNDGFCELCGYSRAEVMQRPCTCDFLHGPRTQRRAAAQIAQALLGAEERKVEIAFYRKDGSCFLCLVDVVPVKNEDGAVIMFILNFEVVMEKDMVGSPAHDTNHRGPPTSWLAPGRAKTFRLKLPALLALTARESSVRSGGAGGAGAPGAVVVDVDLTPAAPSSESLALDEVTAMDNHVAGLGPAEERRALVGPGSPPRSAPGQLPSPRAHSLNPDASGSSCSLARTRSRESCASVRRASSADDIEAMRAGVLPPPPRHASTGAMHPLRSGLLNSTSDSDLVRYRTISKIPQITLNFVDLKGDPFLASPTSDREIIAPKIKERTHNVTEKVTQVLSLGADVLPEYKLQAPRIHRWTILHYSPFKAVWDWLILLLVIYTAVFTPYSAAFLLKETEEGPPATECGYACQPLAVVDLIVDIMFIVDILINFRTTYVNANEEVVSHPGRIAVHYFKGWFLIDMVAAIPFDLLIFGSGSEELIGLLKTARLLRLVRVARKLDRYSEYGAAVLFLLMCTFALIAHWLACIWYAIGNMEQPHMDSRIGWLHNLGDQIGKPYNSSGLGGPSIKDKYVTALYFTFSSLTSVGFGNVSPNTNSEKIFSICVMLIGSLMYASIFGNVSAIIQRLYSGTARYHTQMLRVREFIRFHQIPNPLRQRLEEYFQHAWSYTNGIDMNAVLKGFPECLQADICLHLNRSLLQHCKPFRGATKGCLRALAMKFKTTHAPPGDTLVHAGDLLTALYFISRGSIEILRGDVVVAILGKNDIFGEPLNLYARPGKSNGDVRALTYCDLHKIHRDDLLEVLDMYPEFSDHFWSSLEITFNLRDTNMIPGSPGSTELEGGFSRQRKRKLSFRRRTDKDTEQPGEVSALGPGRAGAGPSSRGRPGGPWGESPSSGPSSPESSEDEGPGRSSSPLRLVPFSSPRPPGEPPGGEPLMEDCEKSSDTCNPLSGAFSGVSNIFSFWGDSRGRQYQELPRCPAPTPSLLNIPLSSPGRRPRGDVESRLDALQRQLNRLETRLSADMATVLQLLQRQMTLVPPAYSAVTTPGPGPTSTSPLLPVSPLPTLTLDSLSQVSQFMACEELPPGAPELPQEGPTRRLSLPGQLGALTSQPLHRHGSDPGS

With `NC/C(=C\F)COc1cccc(Cn2c(=S)[nH]c(=O)c3[nH]cnc32)c1` the inhibition was under 50% (ABCC2; transport, inhibitor; HEK cells expressing ABCC2; 30 µM, with: CDCF substrate).
With `NCc1cc2c(cc1F)C(=O)N(C1CCC(=O)NC1=O)C2` (stereo not shown) the concentration was 1750 ng/mL and 1950 ng/mL (AOC3 (Homo sapiens, UniProt Q16853); substrate, LC-MS/MS; cirrhotic human liver lysate; 15.63 µM, 60 min, pH 7.4).
For `CC[C@H]1[C@@H](O)[C@@H]2[C@H](CC[C@]3(C)[C@@H]([C@H](C)CCNC(=O)NS(=O)(=O)c4ccc(C(C)(C)C)cc4)CC[C@@H]23)[C@@]2(C)CC[C@@H](O)C[C@@H]12`, “CL/F geometric mean” read 25.4 L/h (CYP3A4; human, plasma; 10 mg, day 1, compound alone).
`CCCC[C@@H]1NC(=O)[C@H](Cc2ccc(O)cc2)NC(=O)[C@@H]2CCCN2C(=O)[C@H](CC(=O)O)NC(=O)[C@H](C)NC(=O)[C@H](Cc2ccccc2)NC(=O)[C@@H]2CSCCC(=O)N3CN(CN(C3)C(=O)CCSC[C@@H](C(=O)N[C@@H](CNC(=O)CCc3cn(CCOCCOCCOCCOCCOCCOCCOCCOCCOCCOCCOCCOCCC(=O)NCCC(=O)N(C)CC(=O)N(C)CC(=O)N(C)CC(=O)N(C)CC(=O)N(C)CC(=O)N(C)CC(=O)N(C)CC(=O)N(C)CC(=O)N(C)CC(=O)N(C)CC(=O)NCCCC[C@@H]4NC(=O)[C@H](Cc5cccc6ccccc56)NC(=O)[C@@H]5CCCN5C(=O)[C@@H](NC(C)=O)CSCCC(=O)N5CN6CN(C5)C(=O)CCSC[C@H](NC4=O)C(=O)N[C@@H](CCSC)C(=O)N[C@@H](CCCCNC(=N)N)C(=O)N[C@@H](CC(=O)O)C(=O)N[C@@H](Cc4c[nH]c5ccccc45)C(=O)N[C@@H](CO)C(=O)N[C@@H]([C@@H](C)O)C(=O)N4CCC[C@H]4C(=O)N4C[C@H](O)C[C@H]4C(=O)N[C@@H](Cc4c[nH]c5ccccc45)C(=O)N[C@H](C(N)=O)CSCCC6=O)nn3)C(N)=O)NC1=O)C(=O)CCSC[C@H](NC(C)=O)C(=O)N[C@@H](CC(C)(C)C)C(=O)N1CCC[C@H]1C(=O)N[C@@H](CCC(=O)O)C(=O)N[C@H](C)C(=O)N1CCC[C@H]1C(=O)N[C@@H](Cc1ccc(O)cc1)C(=O)N2` has an Emax of 39 fold (Tumor necrosis factor receptor superfamily member 9/Nectin-4; reporter gene, agonist, luciferase reporter; CD137 Jurkat reporter with HT-1376; 6 h, geometric mean; reference: wells without compound).
`O=C(NCC1CCCCN1)c1cc(OCC(F)(F)F)ccc1OCC(F)(F)F` (stereo not shown): “recovery from inactivation” 52.6% (SCN5A (Homo sapiens, UniProt Q14524); near IC50, 200 ms, -120 mV hyperpolarization).
`COc1cc(O)c(CC=C(C)C)c(O)c1C(=O)/C=C/c1ccc(O)cc1` has an inhibition of under 10% (CYP2B6 (human); enzyme activity, inhibitor; human liver microsomes; 1 µM, pH 7.4, with: bupropion).
For `Cn1c(=O)c2c(ncn2C)n(C)c1=O`, the AUC(0-inf) was 31700 ng·h/mL (Cytochrome P450 1A2 (CYP1A2, Homo sapiens, UniProt P05177); human, plasma; oral, 200 mg, day 1, alone, geometric mean).
For `CCCN(CCC)S(=O)(=O)c1ccc(C(=O)O)cc1`, Papp read “increased” (ABCC2; ceftiofur transport; Caco-2; 100 µM, with: ceftiofur 200 µg/mL; reference: control).
With `CCCC[C@@H]1NC(=O)[C@H](Cc2ccc(O)cc2)NC(=O)[C@@H]2CCCN2C(=O)[C@H](CC(=O)O)NC(=O)[C@H](C)NC(=O)[C@H](Cc2ccccc2)NC(=O)[C@@H]2CSCCC(=O)N3CN(CN(C3)C(=O)CCSC[C@@H](C(=O)N[C@@H](C)C(N)=O)NC1=O)C(=O)CCSC[C@H](NC(C)=O)C(=O)N[C@@H](CC(C)(C)C)C(=O)N1CCC[C@H]1C(=O)N[C@@H](CCC(=O)O)C(=O)N[C@H](CCCCNC(=O)CCc1cn(CC(=O)N[C@H]3CSCCC(=O)N4CN5CN(C4)C(=O)CCSC[C@H](NC(=O)[C@@H](CC(=O)O)NC(=O)[C@H](Cc4cccc6ccccc46)NC(=O)[C@@H]4CCCN4C3=O)C(=O)N[C@@H](CCSC)C(=O)N[C@@H](CCCCNC(=N)N)C(=O)N[C@@H](CC(=O)O)C(=O)N[C@@H](Cc3c[nH]c4ccccc34)C(=O)N[C@@H](CO)C(=O)N[C@@H]([C@@H](C)O)C(=O)N3CCC[C@H]3C(=O)N3C[C@H](O)C[C@H]3C(=O)N[C@@H](Cc3c[nH]c4ccccc34)C(=O)N[C@H](C(N)=O)CSCCC5=O)nn1)C(=O)N1CCC[C@H]1C(=O)N[C@@H](Cc1ccc(O)cc1)C(=O)N2` the Emax was 44 fold (Tumor necrosis factor receptor superfamily member 9/Nectin-4; reporter gene, agonist, luciferase reporter; CD137 Jurkat reporter with HT-1376; 6 h, geometric mean; reference: wells without compound).
For `COc1ccc(Cl)cc1C(=O)NCCc1ccc(S(=O)(=O)NC(=O)NC2CCCCC2)cc1`, the log K was 1.69 (human serum albumin; binding).
`CCCC[C@@H]1NC(=O)[C@H](Cc2ccc(O)cc2)NC(=O)[C@@H]2CCCN2C(=O)[C@H](CC(=O)O)NC(=O)[C@H](C)NC(=O)[C@H](Cc2ccccc2)NC(=O)[C@@H]2CSCCC(=O)N3CN(CN(C3)C(=O)CCSC[C@@H](C(=O)N[C@@H](C)C(N)=O)NC1=O)C(=O)CCSC[C@H](NC(C)=O)C(=O)N[C@@H](CC(C)(C)C)C(=O)N1CCC[C@H]1C(=O)N[C@@H](CCC(=O)O)C(=O)N[C@H](CCCCNC(=O)CCc1cn(CCOCCOCCOCCOCCOCCOCCOCCOCCOCCOCCNC(=O)CCOCCN(CCOCCC(=O)NCCOCCOCCOCCOCCOCCOCCOCCOCCOCCOCCn3cc(CCC(=O)NCCCC[C@H]4NC(=O)[C@H](CCC(=O)O)NC(=O)[C@@H]5CCCN5C(=O)[C@H](CC(C)(C)C)NC(=O)[C@@H](NC(C)=O)CSCCC(=O)N5CN6CN(C5)C(=O)CCSC[C@H](NC(=O)[C@H](Cc5ccc(O)cc5)NC(=O)[C@@H]5CCCN5C4=O)C(=O)N[C@@H](Cc4ccccc4)C(=O)N[C@@H](C)C(=O)N[C@@H](CC(=O)O)C(=O)N4CCC[C@H]4C(=O)N[C@@H](Cc4ccc(O)cc4)C(=O)N[C@@H](CCCC)C(=O)N[C@H](C(=O)N[C@@H](C)C(N)=O)CSCCC6=O)nn3)CCOCCC(=O)NCCOCCOCCOCCOCCOCCOCCOCCOCCOCCOCCn3cc(CCC(=O)N[C@H]4CSCCC(=O)N5CN6CN(C5)C(=O)CCSC[C@H](NC(=O)[C@@H](CC(=O)O)NC(=O)[C@H](Cc5cccc7ccccc57)NC(=O)[C@@H]5CCCN5C4=O)C(=O)N[C@@H](CCSC)C(=O)N[C@@H](CCCCNC(=N)N)C(=O)N[C@@H](CC(=O)O)C(=O)N[C@@H](Cc4c[nH]c5ccccc45)C(=O)N[C@@H](CO)C(=O)N[C@@H]([C@@H](C)O)C(=O)N4CCC[C@H]4C(=O)N4C[C@H](O)C[C@H]4C(=O)N[C@@H](Cc4c[nH]c5ccccc45)C(=O)N[C@H](C(N)=O)CSCCC6=O)nn3)nn1)C(=O)N1CCC[C@H]1C(=O)N[C@@H](Cc1ccc(O)cc1)C(=O)N2` gave an Emax of 40 fold (Tumor necrosis factor receptor superfamily member 9/Nectin-4; reporter gene, agonist, luciferase reporter; CD137 Jurkat reporter with HT-1376; 6 h, geometric mean; reference: wells without compound).
With `COc1ccc(F)cc1C(=O)NCc1ccc(-c2nn([C@@H](C)C(F)(F)F)c(N)c2C(N)=O)cc1` the Tmax was 3.5 h (CYP3A4; human, both sexes, plasma; oral, 200 mg, single dose, with: itraconazole).
`CCCC[C@@H]1NC(=O)[C@H](Cc2ccc(O)cc2)NC(=O)[C@@H]2CCCN2C(=O)[C@H](CC(=O)O)NC(=O)[C@H](C)NC(=O)[C@H](Cc2ccccc2)NC(=O)[C@@H]2CSCCC(=O)N3CN(CN(C3)C(=O)CCSC[C@@H](C(=O)N[C@@H](C)C(N)=O)NC1=O)C(=O)CCSC[C@H](NC(C)=O)C(=O)N[C@@H](CC(C)(C)C)C(=O)N1CCC[C@H]1C(=O)N[C@@H](CCC(=O)O)C(=O)N[C@H](CCCCNC(=O)CCc1cn(CCOCCOCCOCCOCCOCCC(=O)N[C@H]3CSCCC(=O)N4CN5CN(C4)C(=O)CCSC[C@H](NC(=O)[C@@H](CC(=O)O)NC(=O)[C@H](Cc4cccc6ccccc46)NC(=O)[C@@H]4CCCN4C3=O)C(=O)N[C@@H](CCSC)C(=O)N[C@@H](CCCCNC(=N)N)C(=O)N[C@@H](CC(=O)O)C(=O)N[C@@H](Cc3c[nH]c4ccccc34)C(=O)N[C@@H](CO)C(=O)N[C@@H]([C@@H](C)O)C(=O)N3CCC[C@H]3C(=O)N3C[C@H](O)C[C@H]3C(=O)N[C@@H](Cc3c[nH]c4ccccc34)C(=O)N[C@H](C(N)=O)CSCCC5=O)nn1)C(=O)N1CCC[C@H]1C(=O)N[C@@H](Cc1ccc(O)cc1)C(=O)N2` has an Emax of 31 fold (Tumor necrosis factor receptor superfamily member 9/Nectin-4; reporter gene, agonist, luciferase reporter; CD137 Jurkat reporter with HT-1376; 6 h, geometric mean; reference: wells without compound).
`Cc1oc2ccccc2c1Cc1cc(I)c(OCC(=O)O)c(I)c1` — result for “inward tail current block”: 40 ± 3% (KCNH2 (Homo sapiens, UniProt Q12809); ion current, whole-cell patch clamp; HEK293 expressing hERG1; 10 µM, K+ 10 mM, after +40 mV).
The Emax of `CCCC[C@@H]1NC(=O)[C@H](Cc2ccc(O)cc2)NC(=O)[C@@H]2CCCN2C(=O)[C@H](CC(=O)O)NC(=O)[C@H](C)NC(=O)[C@H](Cc2ccccc2)NC(=O)[C@@H]2CSCCC(=O)N3CN(CN(C3)C(=O)CCSC[C@@H](C(=O)N[C@@H](CNC(=O)CCc3cn(CC(=O)N[C@H]4CSCCC(=O)N5CN6CN(C5)C(=O)CCSC[C@H](NC(=O)[C@@H](CC(=O)O)NC(=O)[C@H](Cc5cccc7ccccc57)NC(=O)[C@@H]5CCCN5C4=O)C(=O)N[C@@H](CCSC)C(=O)N[C@@H](CCCCNC(=N)N)C(=O)N[C@@H](CC(=O)O)C(=O)N[C@@H](Cc4c[nH]c5ccccc45)C(=O)N[C@@H](CO)C(=O)N[C@@H]([C@@H](C)O)C(=O)N4CCC[C@H]4C(=O)N4C[C@H](O)C[C@H]4C(=O)N[C@@H](Cc4c[nH]c5ccccc45)C(=O)N[C@H](C(N)=O)CSCCC6=O)nn3)C(N)=O)NC1=O)C(=O)CCSC[C@H](NC(C)=O)C(=O)N[C@@H](CC(C)(C)C)C(=O)N1CCC[C@H]1C(=O)N[C@@H](CCC(=O)O)C(=O)N[C@H](C)C(=O)N1CCC[C@H]1C(=O)N[C@@H](Cc1ccc(O)cc1)C(=O)N2` is reported as 37 fold (Tumor necrosis factor receptor superfamily member 9/Nectin-4; reporter gene, agonist, luciferase reporter; CD137 Jurkat reporter with HT-1376; 6 h, geometric mean; reference: wells without compound).
`C[C@H]1CN(C2COC2)CCN1c1ccc(Nc2cc(-c3ccnc(N4CCn5c(cc6c5CC(C)(C)C6)C4=O)c3CO)cn(C)c2=O)nc1` gave a remaining compound of 55.5 ± 4.1% (human CYP2C9; human liver microsomes; 1 µM, 60 min, pH 7.4, with: sulfaphenazole 10 µM, NADPH; reference: 0 min).

For quick reference, copied from above:
For `CC[C@H]1[C@@H](O)[C@@H]2[C@H](CC[C@]3(C)[C@@H]([C@H](C)CCNC(=O)NS(=O)(=O)c4ccc(C(C)(C)C)cc4)CC[C@@H]23)[C@@]2(C)CC[C@@H](O)C[C@@H]12`, “CL/F geometric mean” read 25.4 L/h (CYP3A4; human, plasma; 10 mg, day 1, compound alone).
